Assay results from different studies.
Values joined by “and” are separate records of one study, mostly repeats; a detail may differ. ± marks the error that the study gave.
uncharacterized protein: uncharacterized protein (Anopheles coluzzii, UniProt A0A6E8VQK1)
Sequence of UniProt P27361 (whole entry, looked up): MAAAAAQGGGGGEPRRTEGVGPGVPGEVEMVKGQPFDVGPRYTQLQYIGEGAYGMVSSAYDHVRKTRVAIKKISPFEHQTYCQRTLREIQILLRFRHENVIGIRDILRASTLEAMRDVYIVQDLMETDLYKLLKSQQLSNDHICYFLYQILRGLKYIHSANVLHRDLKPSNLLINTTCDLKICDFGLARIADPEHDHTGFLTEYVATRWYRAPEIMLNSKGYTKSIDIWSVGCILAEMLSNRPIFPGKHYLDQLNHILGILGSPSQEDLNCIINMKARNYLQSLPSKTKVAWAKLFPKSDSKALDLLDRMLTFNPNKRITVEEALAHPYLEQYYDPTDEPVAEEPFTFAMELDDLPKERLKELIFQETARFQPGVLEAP
Sequence of UniProt P49685 (whole entry, looked up): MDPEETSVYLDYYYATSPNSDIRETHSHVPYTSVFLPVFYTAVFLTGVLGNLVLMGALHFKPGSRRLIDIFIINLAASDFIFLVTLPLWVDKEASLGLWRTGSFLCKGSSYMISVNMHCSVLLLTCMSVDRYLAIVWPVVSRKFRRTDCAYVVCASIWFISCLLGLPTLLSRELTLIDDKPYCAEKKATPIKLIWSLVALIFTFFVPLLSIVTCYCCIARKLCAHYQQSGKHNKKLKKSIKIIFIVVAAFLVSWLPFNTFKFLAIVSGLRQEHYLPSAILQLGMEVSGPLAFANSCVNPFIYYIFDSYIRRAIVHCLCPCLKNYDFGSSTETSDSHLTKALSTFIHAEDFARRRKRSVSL
Sequence of UniProt Q9H4A3 (whole entry, looked up): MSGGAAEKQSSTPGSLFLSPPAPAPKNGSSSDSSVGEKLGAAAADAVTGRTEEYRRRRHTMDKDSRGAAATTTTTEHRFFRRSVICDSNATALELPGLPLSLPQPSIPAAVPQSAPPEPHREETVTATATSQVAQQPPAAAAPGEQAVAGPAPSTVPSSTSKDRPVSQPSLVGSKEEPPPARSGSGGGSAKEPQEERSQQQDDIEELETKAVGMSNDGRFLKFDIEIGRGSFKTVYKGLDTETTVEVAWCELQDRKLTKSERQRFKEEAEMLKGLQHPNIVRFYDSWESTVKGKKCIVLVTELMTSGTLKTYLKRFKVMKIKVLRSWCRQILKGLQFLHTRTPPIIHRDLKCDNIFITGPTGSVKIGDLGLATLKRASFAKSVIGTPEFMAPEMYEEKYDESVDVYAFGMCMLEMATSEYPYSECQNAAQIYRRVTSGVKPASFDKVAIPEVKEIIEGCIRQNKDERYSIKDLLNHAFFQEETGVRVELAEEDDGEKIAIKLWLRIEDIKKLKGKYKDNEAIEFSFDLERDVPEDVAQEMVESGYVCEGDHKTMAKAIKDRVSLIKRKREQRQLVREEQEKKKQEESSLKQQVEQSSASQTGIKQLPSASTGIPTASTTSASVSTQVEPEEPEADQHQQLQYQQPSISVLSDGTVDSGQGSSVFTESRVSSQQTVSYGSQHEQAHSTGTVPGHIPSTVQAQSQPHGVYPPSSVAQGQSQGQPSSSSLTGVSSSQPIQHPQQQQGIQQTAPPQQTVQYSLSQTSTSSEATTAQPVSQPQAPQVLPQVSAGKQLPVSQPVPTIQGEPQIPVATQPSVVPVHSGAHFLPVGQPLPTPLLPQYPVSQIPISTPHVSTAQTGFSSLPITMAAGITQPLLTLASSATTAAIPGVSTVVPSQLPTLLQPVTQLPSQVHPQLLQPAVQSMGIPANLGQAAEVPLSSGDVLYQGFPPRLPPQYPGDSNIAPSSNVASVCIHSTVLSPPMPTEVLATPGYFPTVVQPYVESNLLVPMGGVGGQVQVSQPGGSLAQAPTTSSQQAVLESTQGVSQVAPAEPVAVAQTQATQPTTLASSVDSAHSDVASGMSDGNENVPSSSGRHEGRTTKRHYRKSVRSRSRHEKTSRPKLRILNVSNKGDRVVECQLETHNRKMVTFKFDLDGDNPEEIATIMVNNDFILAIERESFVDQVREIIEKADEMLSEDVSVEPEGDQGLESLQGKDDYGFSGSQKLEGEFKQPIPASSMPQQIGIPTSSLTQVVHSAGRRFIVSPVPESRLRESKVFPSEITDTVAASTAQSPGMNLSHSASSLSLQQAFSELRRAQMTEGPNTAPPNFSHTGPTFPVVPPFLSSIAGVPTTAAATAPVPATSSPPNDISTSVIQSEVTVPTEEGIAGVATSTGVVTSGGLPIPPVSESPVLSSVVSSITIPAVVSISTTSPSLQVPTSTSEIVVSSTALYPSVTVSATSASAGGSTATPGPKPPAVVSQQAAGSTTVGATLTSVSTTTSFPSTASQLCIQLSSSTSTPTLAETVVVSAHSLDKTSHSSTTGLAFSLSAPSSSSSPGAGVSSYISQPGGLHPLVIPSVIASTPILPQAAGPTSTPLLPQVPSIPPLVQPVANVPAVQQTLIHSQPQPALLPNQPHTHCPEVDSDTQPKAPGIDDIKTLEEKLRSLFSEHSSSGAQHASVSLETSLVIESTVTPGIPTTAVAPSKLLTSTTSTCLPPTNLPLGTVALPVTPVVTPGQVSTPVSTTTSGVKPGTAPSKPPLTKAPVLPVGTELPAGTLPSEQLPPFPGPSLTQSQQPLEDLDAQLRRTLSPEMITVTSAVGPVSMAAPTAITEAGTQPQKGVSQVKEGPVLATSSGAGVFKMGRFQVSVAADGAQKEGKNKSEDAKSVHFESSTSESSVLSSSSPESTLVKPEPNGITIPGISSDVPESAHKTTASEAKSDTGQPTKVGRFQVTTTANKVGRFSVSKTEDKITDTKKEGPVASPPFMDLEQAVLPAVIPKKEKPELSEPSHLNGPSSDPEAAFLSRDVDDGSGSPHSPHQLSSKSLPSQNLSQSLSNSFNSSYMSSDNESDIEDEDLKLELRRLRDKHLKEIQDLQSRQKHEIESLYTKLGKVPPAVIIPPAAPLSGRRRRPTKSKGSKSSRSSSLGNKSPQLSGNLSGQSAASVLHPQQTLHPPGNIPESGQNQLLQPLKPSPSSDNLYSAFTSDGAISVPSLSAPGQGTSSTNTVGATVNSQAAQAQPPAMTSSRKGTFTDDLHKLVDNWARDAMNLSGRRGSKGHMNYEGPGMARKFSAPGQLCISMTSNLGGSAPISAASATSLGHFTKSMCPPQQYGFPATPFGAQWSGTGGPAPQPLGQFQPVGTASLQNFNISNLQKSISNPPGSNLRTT
Sequence of UniProt Q9BWU1 (whole entry, looked up): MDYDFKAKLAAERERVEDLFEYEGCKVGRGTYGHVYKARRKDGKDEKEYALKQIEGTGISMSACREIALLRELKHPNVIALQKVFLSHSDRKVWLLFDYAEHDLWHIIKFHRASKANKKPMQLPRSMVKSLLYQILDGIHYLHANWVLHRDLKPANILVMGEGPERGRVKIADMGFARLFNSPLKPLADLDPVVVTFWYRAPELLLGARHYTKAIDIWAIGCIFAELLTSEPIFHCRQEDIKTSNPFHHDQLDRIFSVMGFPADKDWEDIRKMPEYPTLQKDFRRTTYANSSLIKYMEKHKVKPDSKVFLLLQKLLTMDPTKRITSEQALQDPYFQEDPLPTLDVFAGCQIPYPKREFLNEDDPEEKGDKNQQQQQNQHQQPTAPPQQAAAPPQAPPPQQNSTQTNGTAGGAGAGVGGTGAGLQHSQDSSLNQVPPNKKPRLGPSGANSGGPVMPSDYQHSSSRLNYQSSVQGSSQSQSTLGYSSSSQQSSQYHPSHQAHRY
Sequence of UniProt H2K887 (whole entry, looked up): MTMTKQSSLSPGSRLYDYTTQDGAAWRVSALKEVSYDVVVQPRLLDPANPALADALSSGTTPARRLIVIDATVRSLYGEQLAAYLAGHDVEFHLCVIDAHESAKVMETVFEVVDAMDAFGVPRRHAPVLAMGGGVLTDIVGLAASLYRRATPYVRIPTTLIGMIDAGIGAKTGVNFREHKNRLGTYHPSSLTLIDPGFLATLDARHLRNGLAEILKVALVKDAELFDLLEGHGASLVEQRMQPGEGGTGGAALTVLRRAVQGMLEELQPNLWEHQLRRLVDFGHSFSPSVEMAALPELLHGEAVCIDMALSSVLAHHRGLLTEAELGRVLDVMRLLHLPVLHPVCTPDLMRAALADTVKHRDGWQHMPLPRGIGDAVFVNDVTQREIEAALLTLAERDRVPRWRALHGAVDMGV
Sequence of UniProt O42275 (whole entry, looked up): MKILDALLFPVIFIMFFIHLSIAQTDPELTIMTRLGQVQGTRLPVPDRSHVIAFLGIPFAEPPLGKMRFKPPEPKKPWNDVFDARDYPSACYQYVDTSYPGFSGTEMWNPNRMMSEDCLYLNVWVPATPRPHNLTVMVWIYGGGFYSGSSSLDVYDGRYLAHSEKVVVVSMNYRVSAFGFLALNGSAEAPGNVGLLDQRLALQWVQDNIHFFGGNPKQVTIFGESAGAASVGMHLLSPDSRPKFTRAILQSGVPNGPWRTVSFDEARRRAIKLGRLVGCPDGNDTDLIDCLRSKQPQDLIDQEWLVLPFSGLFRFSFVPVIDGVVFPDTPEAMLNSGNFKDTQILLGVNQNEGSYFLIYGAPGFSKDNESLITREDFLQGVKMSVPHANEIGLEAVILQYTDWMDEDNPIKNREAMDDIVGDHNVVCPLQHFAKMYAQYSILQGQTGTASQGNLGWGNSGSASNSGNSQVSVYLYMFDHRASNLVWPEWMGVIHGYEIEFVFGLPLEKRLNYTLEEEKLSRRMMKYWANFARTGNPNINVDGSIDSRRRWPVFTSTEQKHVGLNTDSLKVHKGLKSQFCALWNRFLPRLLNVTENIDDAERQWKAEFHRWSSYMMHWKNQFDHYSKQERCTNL
Sequence of UniProt P30559 (whole entry, looked up): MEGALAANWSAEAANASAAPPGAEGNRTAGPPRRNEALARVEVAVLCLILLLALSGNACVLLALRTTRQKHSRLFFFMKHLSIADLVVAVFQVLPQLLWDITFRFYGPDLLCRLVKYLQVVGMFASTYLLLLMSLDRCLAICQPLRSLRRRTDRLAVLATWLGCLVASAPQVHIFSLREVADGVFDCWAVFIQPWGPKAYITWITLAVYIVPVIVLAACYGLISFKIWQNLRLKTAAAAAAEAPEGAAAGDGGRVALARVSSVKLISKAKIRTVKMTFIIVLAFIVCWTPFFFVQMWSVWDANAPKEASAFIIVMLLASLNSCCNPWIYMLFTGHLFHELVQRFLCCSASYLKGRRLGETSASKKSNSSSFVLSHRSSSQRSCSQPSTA

`CCCCC/C=C\C/C=C\C/C=C\C/C=C\CCCC(=O)NCCO`: “maximal open probability” 0.85 ± 0.14 (Transient receptor potential cation channel subfamily V member 1 (Trpv1, Mus musculus, UniProt Q704Y3); ion current, agonist, whole-cell patch clamp; HEK293; baseline: 3 mM 2-APB current).
`CC(C)C[C@H]1C(=O)N2CCC[C@H]2[C@]2(O)O[C@](NC(=O)[C@@H]3C=C4c5cccc6[nH]c(Br)c(c56)C[C@H]4[N+](C)(C)C3)(C(C)C)C(=O)N12.[I-]`: “radioligand binding inhibition” “no effect” (Mu-type opioid receptor (Oprm1, Rattus norvegicus, UniProt P33535); 100 nM, together with: [3H]DAMGO).
With `O=C(O)COP(=O)(O)O` the Ki ratio was 28 (TPI1 (Saccharomyces cerevisiae, UniProt P00942, Y208S); enzyme activity, competitive inhibitor, GPDH/NADH-coupled; pH 8.9, 25 °C, ionic strength 0.1 NaCl, together with: glyceraldehyde 3-phosphate substrate; baseline: mutant over wild type).
`CCCCCCCCCCCCCCCC[N+](C)(C)C.[Br-]`: “mean open time” 205 ms and 405 ms (Sodium channel protein type 4 alpha, BTX-activated (Oryctolagus cuniculus, UniProt G1SLL9); rabbit).
With `CN[C@@H]1C[C@H]2O[C@@](C)([C@@H]1OC)n1c3ccccc3c3c4c(c5c6ccccc6n2c5c31)C(=O)NC4` the ΔTm was 0 °C (Proto-oncogene tyrosine-protein kinase Src (SRC, Homo sapiens, UniProt P12931); binder, differential scanning fluorimetry).
With `CCOC(=O)COc1ccc2c(=O)c3ccccc3oc2c1` the reaction velocity was 0.0011 a.u. (Acetylcholinesterase (ache, Electrophorus electricus, UniProt O42275); enzyme activity; 0.84 µM, together with: substrate 0.86 mM; higher = faster reaction).
The remaining binding of `[2H]c1c([2H])c([C@]2([2H])CCCN2C(=O)C(C)(C)Oc2ccc3cn[nH]c3c2)c([2H])c([2H])c1C([2H])([2H])[2H]` is reported as 98% (Phosphatidylinositol 3-kinase C2 domain-containing subunit gamma (PIK3C2G, Homo sapiens, UniProt O75747); KINOMEscan; 1 µM; baseline: DMSO control).
The residence time of `CC(CCn1ccc(-c2ccc(-c3cn(Cc4ccc([N+](=O)[O-])cc4)nn3)cc2)cc1=O)(C(=O)NO)S(C)(=O)=O` (stereo not shown) is reported as 78.5 ± 8.4 min (UDP-3-O-acyl-N-acetylglucosamine deacetylase (Pseudomonas aeruginosa, UniProt P47205); fluorescence; 37 °C).
For `C[N+](C)(C)C`, the affinity ratio was 0.7 (Chrnd/Chrna1/Chrne (Mus musculus, UniProt P02716+P04756+P20782, G173A/S470W); ligand binding, agonist, single-channel kinetics; chain A; baseline: wild type over mutant).
For `CC1(C)[C@H](C(=O)O[C@H](C#N)c2cccc(Oc3ccccc3)c2)[C@@H]1C=C(Br)Br`, the remaining activity was 100% (uncharacterized protein; enzyme activity, inhibitor; Sf9 cell homogenate; 0.004545 µM, 0.1667 h, together with: α-naphthyl acetate substrate; baseline: no inhibitor).
With `COC(=O)[C@@]1(O)C[C@H]2O[C@]1(C)n1c3ccccc3c3c4c(c5c6ccccc6n2c5c31)C(=O)NC4` the kinase activity was 108% and 99.3% and 122% (Mitogen-activated protein kinase 3 (MAPK3, Homo sapiens, UniProt P27361); ADP-Glo; 50 µM, together with: MBP substrate).
`CN1CCN(c2cc(-c3ccncc3)c(-c3ccc4ccccc4c3)nn2)CC1` gave an activation of -0.6% (Oxytocin receptor (OXTR, Homo sapiens, UniProt P30559); agonist, FLIPR; 12.5 µM).
`CNC(=O)Oc1cccc2c1OC(C)(C)O2` gave a remaining activity of 98.4% (uncharacterized protein; enzyme activity, inhibitor; Sf9 cell homogenate; 0.04651 µM, 0.1667 h, together with: α-naphthyl acetate substrate; baseline: no inhibitor).
`CC[C@H](C)[C@H](NC(=O)CNC(=O)[C@@H](N)CCCCN)C(=O)N[C@@H](CC(C)C)C(=O)N[C@@H](CCCCN)C(=O)N[C@@H](CC(N)=O)C(=O)N[C@@H](CCCNC(=N)N)C(=O)N[C@@H](C)C(=O)N[C@@H](CCCNC(=N)N)C(=O)N[C@@H](CCCNC(=N)N)C(=O)N[C@@H](CCC(=O)O)C(=O)N[C@@H](CCCNC(=N)N)C(=O)N1CCC[C@H]1C(=O)NCC(=O)N[C@@H](CCCCN)C(=O)N[C@@H](CCCNC(=N)N)C(=O)N[C@@H](CCCCN)C(=O)N[C@H](C(=O)N[C@H](C(=O)N[C@H](C(=O)N[C@@H](Cc1c[nH]c2ccccc12)C(=O)N1CCC[C@H]1C(=O)N[C@@H](CCC(=O)O)C(=O)N[C@@H](CCC(=O)O)C(=O)NCC(=O)N[C@@H](CCCCN)C(=O)N[C@@H](CC(C)C)C(=O)N[C@@H](CCCNC(=N)N)C(=O)N[C@@H](CCC(=O)O)C(=O)N[C@@H](Cc1ccc(O)cc1)C(=O)N[C@@H](Cc1ccccc1)C(=O)N[C@@H](Cc1ccc(O)cc1)C(=O)N[C@@H](Cc1ccccc1)C(=O)N[C@@H](CCC(=O)O)C(=O)N[C@@H](CC(C)C)C(=O)N[C@@H](CC(=O)O)C(=O)N[C@@H](CCC(=O)O)C(=O)N[C@H](C(=O)N[C@@H](CCC(=O)O)C(=O)N[C@@H](CCCNC(=N)N)C(=O)N[C@H](C(=O)N[C@@H](CC(N)=O)C(=O)N[C@H](C(=O)O)C(C)C)C(C)C)[C@@H](C)O)[C@@H](C)O)C(C)C)[C@@H](C)O` — result for “entropy change ΔS”: -68 ± 4.6 cal/mol/K (Serine/threonine-protein phosphatase PP1-alpha catalytic subunit (PPP1CA, Homo sapiens, UniProt P62136); binding, isothermal titration calorimetry; concentration not given, 25 °C, PP1α residues 7-330).
For `Cc1ccc([C@H]2C[C@@H]2COc2cc(NCc3nnc(C)s3)nc(C)n2)nc1`, the selectivity ratio was greater than 2.01e+06 fold (Dual specificity calcium/calmodulin-dependent 3',5'-cyclic nucleotide phosphodiesterase 1A (PDE1A, Homo sapiens, UniProt P54750); enzyme activity, inhibitor, IMAP fluorescence polarization; baseline: Ki target over Ki PDE10A2).
Under “corticosterone formation rate”, `C[C@]12CC[C@H]3[C@@H](CCC4=CC(=O)CC[C@@]43C)[C@@H]1CC[C@@H]2C(=O)CO` is recorded as 34.3 pmol/min/pmol P450 (Cytochrome P450 11B2, mitochondrial (CYP11B2, Homo sapiens, UniProt P19099); substrate; steady state).
For `COc1cc(Nc2ncc(F)c(Nc3ccc4c(n3)NC(=O)C(C)(C)O4)n2)cc(OC)c1OC`, the inhibition was 100% (Vascular endothelial growth factor receptor 1 (FLT1, Homo sapiens, UniProt P17948); KINOMEscan; 10 µM).
With `Nc1ncnc2c1ncn2[C@@H]1O[C@H](COP(=O)(O)OP(=O)(O)OP(=O)(O)O)[C@@H](O)[C@H]1O` the fluorescence ratio was 3.3 (matB (Rhodopseudomonas palustris, UniProt Q6ND88, C106A/K488A/Q457C/R286C); ATP binding; pH 7.0, 200 mM NaCl; baseline: bound over unbound).
For `C[C@@H](O)[C@H](NC(=O)c1ccc(-c2ccccc2)cc1)C(=O)NO`, “ΔS of binding” read 0.0607 kJ/(mol·K) (UDP-3-O-acyl-N-acetylglucosamine deacetylase (Pseudomonas aeruginosa, UniProt P47205, C40S); ITC; concentration not given, 298 K).
With `C[C@H]1CN(c2n[nH]c3nc(N[C@H]4CC[C@H](NS(=O)(=O)CCC(F)(F)F)CC4)ncc23)CCO1` the relative abundance was 1.19 (Serine/threonine-protein kinase WNK1 (WNK1, Homo sapiens, UniProt Q9H4A3); inhibitor, Kinobeads competition profiling; 0.16 µM; baseline: vehicle).
`Cc1ncc(C)n2nc(/C=C/c3nc(N4CCCC4)cc(N4CCOCC4)n3)nc12` gave an inhibition of -3% (NMDA receptor; binding; 10 µM).
The median ratio of `O=C(c1ccc(Cl)cc1)N1CCN2C(=O)N(OC(=O)N3CCOc4ccccc43)C(=O)C2C1` (stereo not shown) is reported as 1.15 (Dipeptidyl peptidase 2 (Homo sapiens, UniProt Q9UHL4); enzyme activity, inhibitor, MS-based ABPP; SW-620 conditioned medium; 10 µM, 1 h, 37 °C; baseline: compound over DMSO, lower = stronger inhibition).
`O=P(O)(O)OC[C@H]1C[C@](O)(CO)[C@@H](O)[C@H](O)[C@@H]1O` gave an apparent Vmax of 3.3 ± 0.4 µM/min (valA (Streptomyces hygroscopicus, UniProt H2K887); phosphate release; 10 µM).
For `O=C(Nc1cccnn1)N1CCC(=Cc2cccc(Oc3ccc(C(F)(F)F)cn3)c2)CC1`, the inhibition was 5% (Prostaglandin E2 receptor EP1 subtype (PTGER1, Homo sapiens, UniProt P34995); binding, measured: EP1; 10 µM, human, together with: [3H]prostaglandin E2).
`Nc1ncc(-c2nc(N3CCOCC3)nc(N3CCOCC3)n2)c(C(F)F)n1` gave a remaining binding of 69% (Cyclin-dependent kinase 19 (CDK19, Homo sapiens, UniProt Q9BWU1); KINOMEscan; 10 µM; baseline: control).
Under “log2 fold change”, `COc1cc(N)c(Cl)cc1C(=O)NC1CN2CCC1CC2` (stereo not shown) is recorded as 0.652 (G-protein coupled receptor 15 (Homo sapiens, UniProt P49685); β-arrestin recruitment, TANGO luminescence, measured: GPR15; concentration not given; baseline: basal luminescence).
For `O=C(Nc1cnccc1Cl)N1CCN(Cc2ccc3c(c2)OC(F)(F)O3)CC1`, “inhibition of binding” read 2% (Estrogen receptor beta (ESR2, Homo sapiens, UniProt Q92731); radioligand binding; 50 µM, together with: [3H]estradiol).
For `COc1ccc(N2C(=O)N(c3c(C)cccc3Cl)Cc3cnc(Nc4ccc(C5CCN(C)CC5)cc4OC)nc32)nc1`, the inhibition was 30% (Fibroblast growth factor receptor 4 (FGFR4, Homo sapiens, UniProt P22455); kinase activity; 0.5 µM).
`CC(C)OC(=O)[C@H](C)NP(=S)(Oc1ccc(CCN2CCOCC2)cc1)c1ccccc1` (stereo partly shown) — result for “DNS-NH2 formation rate constant”: 0.147 h⁻¹ (Lysosomal protective protein (CTSA, Homo sapiens, UniProt P10619); substrate; 5 µM, pH 7.4, 37 °C).
`O=C(O)CCC(=O)C(=O)O` gave a Km of 13 ± 5 µM (Hypoxia-inducible factor 1-alpha inhibitor (HIF1AN, Homo sapiens, UniProt Q9NWT6, Y93A); cosubstrate; pH 7.00, 37.0 °C, mutant Y93A, together with: CTAD peptide 100 µM, cosubstrate 217 µM).
`CC(C)(C)c1ccc(OP(=O)(Oc2ccc(C(C)(C)C)cc2)Oc2ccc(C(C)(C)C)cc2)cc1` — result for “enzyme activity inhibition”: “no inhibition” (Acylamino-acid-releasing enzyme (Apeh, Mus musculus, UniProt Q8R146); mouse; dose not given).
For `CN(C(=O)n1cnc(-c2ccc[n+]([O-])c2)c1)C1CCCCC1`, the inhibition was 5% (Leukotriene B4 receptor 1 (LTB4R, Homo sapiens, UniProt Q15722); radioligand binding; 10 µM, together with: [3H]LTB4).
`NCCc1c[nH]c2ccc(O)cc12` gave a Km of 180 ± 50 µM (AANAT2 Hippopotamus amphibius; substrate, DTNB colorimetric; together with: acetyl-CoA).
`C/C=C1\C(=O)C[C@H]2[C@@H]3CCC4=CC(=O)CC[C@]4(C)[C@H]3CC[C@]12C` — result for activity: “inactive” (Nuclear receptor subfamily 1 group I member 3 (Homo sapiens, UniProt Q14994); cells; concentration not given).
